Results collected from several papers.
Each numbered part is a random draw from the data of one study; scales do not carry over between parts.

Sample 1 — method: protein binding microarray; molecule type: double-stranded DNA, one strand shown; medium: in vitro; tested at: not given; relative to: not given; direction: higher = stronger binding
Target: Histone acetyltransferase KAT6A, winged helix 2, GST fusion (KAT6A, Homo sapiens, UniProt Q92794, residues 85-181)
Setting: 8-mer, flanks averaged, mean of 2 arrays, mostly near background
Target sequence (chain): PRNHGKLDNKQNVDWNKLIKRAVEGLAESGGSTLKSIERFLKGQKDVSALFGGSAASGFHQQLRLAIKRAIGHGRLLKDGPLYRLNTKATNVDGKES
| Sequence | E-score |
| --- | --- |
| CTTAATGA | -0.0894 |
| TAACGACA | 0.05 |
| CCTCATTA | -0.0457 |
| AGTAGTGG | -0.0922 |
| AATTCCCA | -0.0664 |
| AGACATCC | -0.00454 |

Sample 2 — method: RNA Bind-n-Seq; molecule type: RNA; medium: in vitro; tested at: 365 nM; relative to: no-protein control; direction: higher = stronger binding
Target: RNA binding protein fox-1 homolog 2, RRM domain, GST-SBP tag (RBFOX2, Homo sapiens, UniProt O43251-10, residues 100-194)
Setting: natural RNA segment, single round, ends assumed
Constant ends, left off below: GGGAGUUCUACAGUCCGACGAUC … UGGAAUUCUCGGGUGCCAA
Target sequence (chain): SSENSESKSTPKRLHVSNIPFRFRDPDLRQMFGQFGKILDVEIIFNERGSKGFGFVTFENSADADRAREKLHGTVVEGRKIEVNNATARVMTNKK
| Sequence | RBNS enrichment (R) |
| --- | --- |
| GGAAAGAAAAUGAUGUCUGUUGUUAUAGUUCAUUGUUUUGCCUACUCAGCAGAAGUGAUGACUCUUAAAAAUUGGCUUUGACCAAAGUUCUCUUGUUUUCAGGGAAAGAA | 0.364 |
| AAGGCAGCAAGACUUCCUGCUAUCCAAGCCCAUGGAGGAAAGUUACUGCUGAGGACCCACCCAAUGGAAGGAUUCUUCUCAGCCUUGACCCUGGAGCACUGGGAACAACU | 0.231 |
| UAGAAGAUGGUCAAAAAAAGUCCAAGUUACCAAUUUUUUAAAAUUUAUAGGCAAAGUAUCAAAUUGUCUUCUUAAUAUGAUAAACUGUGCUUUAUCAUUCUGAAAACUCA | 0.55 |
| AUGAGUCCCAUCUGUAAAUUCUUUGCUCCCUUCUCCGAUGCUGCCACCCAAGGCCUUCUCCUGCCUCCUGUCCACUGCCAGCGUCCUCAUUUGUCAUCGGUCAUUAGCCU | 0.635 |
| AUUCUCUAUUUUAAAUACUUUUAGUAUGUACUGUGUAUGACUCAUUACCAUUUUGAGGGGAUUUAUACAUAUUUUAGAUAAAAAAAGUUAAAUGCUCUUAUUUUUCCAAC | 0.855 |

Sample 3 — method: universal PBM; molecule type: double-stranded DNA, one strand shown; medium: in vitro; tested at: 600 nM; direction: higher = stronger binding
Target: Sal-like protein 4, full length isoform A (SALL4, Homo sapiens, UniProt Q9UJQ4, residues 1-1053)
UniProt Q9UJQ4, sequence (whole entry, looked up): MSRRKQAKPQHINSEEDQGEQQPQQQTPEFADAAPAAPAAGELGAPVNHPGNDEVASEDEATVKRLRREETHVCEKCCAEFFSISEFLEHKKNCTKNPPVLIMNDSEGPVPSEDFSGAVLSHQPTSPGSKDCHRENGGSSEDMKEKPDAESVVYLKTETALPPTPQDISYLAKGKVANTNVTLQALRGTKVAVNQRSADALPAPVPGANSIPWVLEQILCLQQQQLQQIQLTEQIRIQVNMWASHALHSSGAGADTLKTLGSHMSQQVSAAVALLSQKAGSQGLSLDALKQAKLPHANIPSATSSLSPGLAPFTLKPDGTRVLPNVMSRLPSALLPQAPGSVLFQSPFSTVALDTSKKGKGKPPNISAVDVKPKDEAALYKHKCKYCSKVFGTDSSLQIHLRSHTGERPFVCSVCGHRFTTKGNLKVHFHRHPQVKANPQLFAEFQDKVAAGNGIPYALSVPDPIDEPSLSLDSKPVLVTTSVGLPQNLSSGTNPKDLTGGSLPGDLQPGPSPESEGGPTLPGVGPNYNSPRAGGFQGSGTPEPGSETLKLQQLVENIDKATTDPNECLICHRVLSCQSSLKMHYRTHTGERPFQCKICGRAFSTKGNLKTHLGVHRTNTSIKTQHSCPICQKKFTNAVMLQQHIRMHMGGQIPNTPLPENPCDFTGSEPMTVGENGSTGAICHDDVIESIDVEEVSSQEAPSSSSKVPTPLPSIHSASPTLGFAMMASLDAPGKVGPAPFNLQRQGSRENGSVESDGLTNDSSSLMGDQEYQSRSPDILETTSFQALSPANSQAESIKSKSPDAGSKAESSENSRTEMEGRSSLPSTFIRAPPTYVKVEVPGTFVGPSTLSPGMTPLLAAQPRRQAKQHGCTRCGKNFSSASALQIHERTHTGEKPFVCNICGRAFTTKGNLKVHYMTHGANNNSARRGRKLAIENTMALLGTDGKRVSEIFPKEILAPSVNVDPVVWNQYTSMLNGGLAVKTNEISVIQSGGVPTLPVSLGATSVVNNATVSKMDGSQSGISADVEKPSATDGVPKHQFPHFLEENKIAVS
Setting: 8-mer, flanks averaged, mean of replicates
| Sequence | E-score |
| --- | --- |
| GAGATACA | 0.266 |
| ATCAGAAA | 0.153 |
| ACGTGCCT | -0.17 |
| CCATGAAC | -0.0999 |

Single results of other studies
| Substance | target | test | system | conditions | scale | measurement | value |
| --- | --- | --- | --- | --- | --- | --- | --- |
| PhoQ, residues 284 288 289 292 302 303 SSTMSV | PhoP, residues 12 14 15 18 19 TPWLV (Escherichia coli, UniProt P23836) | Sort-seq, refers to: YFP reporter | E. coli | PhoQ-PhoP variant library, together with: 10 µM Mg2+ | relative to: high Mg2+ state, higher = stronger signaling | fold induction | 1.1 |

For quick reference, copied from above (sample 2):
| Sequence | RBNS enrichment (R) |
| --- | --- |
| UAGAAGAUGGUCAAAAAAAGUCCAAGUUACCAAUUUUUUAAAAUUUAUAGGCAAAGUAUCAAAUUGUCUUCUUAAUAUGAUAAACUGUGCUUUAUCAUUCUGAAAACUCA | 0.55 |
| AUGAGUCCCAUCUGUAAAUUCUUUGCUCCCUUCUCCGAUGCUGCCACCCAAGGCCUUCUCCUGCCUCCUGUCCACUGCCAGCGUCCUCAUUUGUCAUCGGUCAUUAGCCU | 0.635 |
